Results of several laboratories.
Numbered parts are unrelated; each lists some results of a single study. Substitutions count along the parent as printed.

Study 1 — method: RNA Bind-n-Seq; form: RNA; medium: in vitro; tested at: 365 nM; reference: no-protein control; reading: higher = stronger binding
Target: RNA binding protein fox-1 homolog 2, RRM domain, GST-SBP tag (RBFOX2, Homo sapiens, UniProt O43251-10, residues 100-194)
Setting: natural RNA segment, single round, ends assumed
Constant ends, left off below: GGGAGUUCUACAGUCCGACGAUC … UGGAAUUCUCGGGUGCCAA
Construct (chain): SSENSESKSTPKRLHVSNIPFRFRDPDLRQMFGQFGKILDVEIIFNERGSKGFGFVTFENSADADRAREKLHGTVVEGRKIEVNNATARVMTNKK
Sequence | RBNS enrichment (R)
UCCAAGUCGAGAACACUUGAACACACAGAAGGGAGACCCCGCCUAGCAUAGAUUUGCAGUUACGGCCUGGAUGCCAGUCGCCAGCCCAGCUGUUCCCCUCGGGAACAUGA | 6.17
AAAUUUGUUUCCUGGUGAGCACAGAAUCAGAACAAAGAACAAUAUCCCAAAGAGGCCCUGUGUCUACCAGGAGCUUCUUUUUCCAAAUGUAAUGGAUUAUGUGGAAUUGU | 0.792
ACAAAUUCAUUCCCAGCCUAGGCUCUGGGCACAUUUCCUGUUCUUGAAUUCUGCUCCUGAAGAGGGUGAACAAAUGGGGCAUUCAAGUUGUGAGCUCAGAAUUACUUUAA | 0.825
UUCGGGCAUAAAAUCUUUAUCUCCAGUUCAUAUAAUCUUGAGUUUUAGAUAUACACACAUGCGUAACAGCUGACAGUUUUUCACAAGUACACCCACCUGUAAAUACUGUA | 0.259
UGGAAACGGAUAACAAAGGGCAGCCUUCCACUUCUGGUAUAAUGGGGGAGCCUCUUUUCUCAGGCUUGACACCUGUCUGAAUAAGAGUGAUUAGAGCCGCAUAAUAUCCC | 0.426
GAAACCCUAACGAUGAAGAUGGUCCUGUCCCGGGAGCGGCUGGCUCCACCGAAGUGCUGGGGAGUUGCAGGACUUCAUUCAAAUAGGAAUAUCAGUCCAAGCAAGCUGAU | 0.474

Study 2 — method: RNA Bind-n-Seq; form: RNA; medium: in vitro; tested at: 200 nM; setting: whole 134-nt RNA, ends assumed; with: 150 mM LiCl; reference: input library; reading: higher = stronger binding; each molecule: 7-deaza-guanosine replaces G
Target: Ras GTPase-activating protein-binding protein 1, full length (G3BP1, Homo sapiens, UniProt Q13283)
Chain of UniProt Q13283 (whole entry, looked up): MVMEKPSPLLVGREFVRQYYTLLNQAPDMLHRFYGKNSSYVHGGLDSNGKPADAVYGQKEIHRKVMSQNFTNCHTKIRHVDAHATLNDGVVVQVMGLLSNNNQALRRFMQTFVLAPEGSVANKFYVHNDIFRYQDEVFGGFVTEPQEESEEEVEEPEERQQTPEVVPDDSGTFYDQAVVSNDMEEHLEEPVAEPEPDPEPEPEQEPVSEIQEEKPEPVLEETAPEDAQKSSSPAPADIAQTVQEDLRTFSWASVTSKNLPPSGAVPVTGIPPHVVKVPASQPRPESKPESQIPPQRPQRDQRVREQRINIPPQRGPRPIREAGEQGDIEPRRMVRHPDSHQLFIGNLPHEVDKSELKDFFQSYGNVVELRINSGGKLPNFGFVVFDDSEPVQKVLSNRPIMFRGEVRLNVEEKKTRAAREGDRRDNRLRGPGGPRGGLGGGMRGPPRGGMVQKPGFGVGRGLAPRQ
Constant ends, left off below: GGGAGUUCUACAGUCCGACGAUC … UGGAAUUCUCGGGUGUCAAGG
Sequence | log2 enrichment
UCCUGUGCUACACAUCGUAUGUACCGAAUCGGGGAAAGGGGUUUUUGGGGAAAAAGGGGAAAGUAUUAUGUUACGCCGUUCGGAUCUGCA | 0.0075
AGUCCUGUGCUACACAUCGUAUGUACCGAAUCGGGUUUUUUUGGGAGGGUUUUUGGGAAAGUAUUAUGUUACGCCGUUCGGAUCUGCACU | -0.585
CACAGACAACACGCACCCACACAGACACAUAGGGAAGGGGUUGGGAUGGGGACAGGGUGCACAGCAGGGCGGGGUAGGACCCCAGCCCCU | 0.0219
UGGGAGGUGGAUUUUGUUUAUUUUUUUAGCUCAUUUCCAGGGGUGGGAAUUUUUUUUUAGUAUGUGUCAUGAAUAAAGUUGUUUUUGAAA | 0.447
UGGCCCUGGUGGCAUGCGGGGAGGAAGAGGUGGCCUCUUGGAUCGUGGUGGUCCCGGUGGAAUGUUCAGAGGUGGCCGUGGUGGAGACAG | 0.326

Study 3 — target: CCNA1, cyclin fold, Cln2 fusion (human); method: yeast growth competition, sequencing; medium: yeast; setting: weak parent motif; reference: not given; reading: higher = stronger binding
Starting sequence: INSM1 docking peptide (human); PKAIRKLHFEDEV; partner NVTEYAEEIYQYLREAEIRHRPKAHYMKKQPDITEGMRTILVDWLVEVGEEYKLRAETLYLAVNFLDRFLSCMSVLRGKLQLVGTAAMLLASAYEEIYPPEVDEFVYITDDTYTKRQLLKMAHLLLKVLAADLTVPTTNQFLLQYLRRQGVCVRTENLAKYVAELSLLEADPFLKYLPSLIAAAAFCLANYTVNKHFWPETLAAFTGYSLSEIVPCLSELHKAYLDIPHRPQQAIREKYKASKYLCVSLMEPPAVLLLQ
Change | normalised enrichment score
K2F | 0.124
E10I | 0.186
I4P | 0.397
L7Y | 0.0947
R5P | -0.143

Mixed results
Substance | target | test | system | setting | scale | quantity | result
PhoQ, residues 284 288 289 292 302 303 HSSMNL | PhoP, residues 12 14 15 18 19 LYHSL (Escherichia coli, UniProt P23836) | Sort-seq, item: YFP reporter | E. coli | PhoQ-PhoP variant library, with: 10 µM Mg2+ | reference: high Mg2+ state, higher = stronger signaling | fold induction | 16.6

Excerpt of the above (study 3):
Change | normalised enrichment score
K2F | 0.124
